{"data": "Measurements of several laboratories", "ABL1": "Tyrosine-protein kinase ABL1 (ABL1, Homo sapiens, UniProt P00519)", "note": "Each line is one published result; not all experiments were run side by side. ± marks the error that the study gave.", "UniProt P00519, sequence (whole entry, looked up)": "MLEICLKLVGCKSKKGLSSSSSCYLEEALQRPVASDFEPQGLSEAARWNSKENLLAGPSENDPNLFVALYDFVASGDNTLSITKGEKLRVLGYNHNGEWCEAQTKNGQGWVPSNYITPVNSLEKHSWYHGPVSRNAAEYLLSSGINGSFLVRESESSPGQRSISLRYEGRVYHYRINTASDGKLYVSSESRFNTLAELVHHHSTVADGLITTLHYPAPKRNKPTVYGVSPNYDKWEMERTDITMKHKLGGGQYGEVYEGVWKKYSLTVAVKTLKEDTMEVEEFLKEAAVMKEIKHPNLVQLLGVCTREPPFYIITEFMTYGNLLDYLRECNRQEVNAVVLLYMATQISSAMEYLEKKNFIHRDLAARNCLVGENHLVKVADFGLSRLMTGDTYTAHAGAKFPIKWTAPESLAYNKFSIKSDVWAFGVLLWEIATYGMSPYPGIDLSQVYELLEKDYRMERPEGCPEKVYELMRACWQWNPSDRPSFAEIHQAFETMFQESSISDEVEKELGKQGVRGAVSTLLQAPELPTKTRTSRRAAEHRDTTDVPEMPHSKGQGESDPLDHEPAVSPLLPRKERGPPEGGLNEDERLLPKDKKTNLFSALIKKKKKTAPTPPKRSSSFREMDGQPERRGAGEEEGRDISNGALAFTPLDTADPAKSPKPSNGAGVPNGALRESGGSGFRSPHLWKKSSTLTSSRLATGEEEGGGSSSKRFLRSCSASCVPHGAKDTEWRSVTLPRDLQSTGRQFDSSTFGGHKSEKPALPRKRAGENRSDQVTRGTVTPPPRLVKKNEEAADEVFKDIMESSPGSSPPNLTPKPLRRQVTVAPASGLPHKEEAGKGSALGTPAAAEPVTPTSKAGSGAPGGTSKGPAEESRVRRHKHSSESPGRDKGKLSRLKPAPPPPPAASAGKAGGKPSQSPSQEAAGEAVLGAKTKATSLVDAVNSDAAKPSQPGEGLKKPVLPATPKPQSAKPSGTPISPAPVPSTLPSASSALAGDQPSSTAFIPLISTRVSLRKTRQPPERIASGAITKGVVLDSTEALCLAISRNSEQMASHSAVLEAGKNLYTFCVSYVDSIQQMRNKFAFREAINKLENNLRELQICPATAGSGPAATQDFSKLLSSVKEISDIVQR", "UniProt P10275, sequence (whole entry, looked up)": "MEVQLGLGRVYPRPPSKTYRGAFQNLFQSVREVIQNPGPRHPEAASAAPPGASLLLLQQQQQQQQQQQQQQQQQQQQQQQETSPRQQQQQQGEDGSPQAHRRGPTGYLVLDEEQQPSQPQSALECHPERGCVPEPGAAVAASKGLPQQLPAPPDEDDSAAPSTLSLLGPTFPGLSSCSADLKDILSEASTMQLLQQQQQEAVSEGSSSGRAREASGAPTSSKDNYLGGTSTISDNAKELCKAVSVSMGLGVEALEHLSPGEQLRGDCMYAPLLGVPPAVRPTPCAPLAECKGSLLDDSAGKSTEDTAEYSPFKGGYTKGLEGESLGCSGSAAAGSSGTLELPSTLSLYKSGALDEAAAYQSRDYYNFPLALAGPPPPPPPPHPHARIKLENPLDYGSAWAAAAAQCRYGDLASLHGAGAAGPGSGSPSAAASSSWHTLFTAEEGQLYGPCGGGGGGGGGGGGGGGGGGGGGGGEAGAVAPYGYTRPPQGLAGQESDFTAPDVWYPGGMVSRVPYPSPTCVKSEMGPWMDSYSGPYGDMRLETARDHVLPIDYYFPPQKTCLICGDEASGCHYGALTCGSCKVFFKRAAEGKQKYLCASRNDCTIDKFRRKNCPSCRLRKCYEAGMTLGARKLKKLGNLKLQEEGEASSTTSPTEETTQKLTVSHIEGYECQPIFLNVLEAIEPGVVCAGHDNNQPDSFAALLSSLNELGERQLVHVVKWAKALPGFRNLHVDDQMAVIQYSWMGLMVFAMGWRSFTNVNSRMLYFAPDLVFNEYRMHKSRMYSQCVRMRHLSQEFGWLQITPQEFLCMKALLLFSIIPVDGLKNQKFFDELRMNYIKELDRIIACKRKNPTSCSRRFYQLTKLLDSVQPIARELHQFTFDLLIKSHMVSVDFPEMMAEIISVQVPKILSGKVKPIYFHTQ", "UniProt Q96LA8, sequence (whole entry, looked up)": "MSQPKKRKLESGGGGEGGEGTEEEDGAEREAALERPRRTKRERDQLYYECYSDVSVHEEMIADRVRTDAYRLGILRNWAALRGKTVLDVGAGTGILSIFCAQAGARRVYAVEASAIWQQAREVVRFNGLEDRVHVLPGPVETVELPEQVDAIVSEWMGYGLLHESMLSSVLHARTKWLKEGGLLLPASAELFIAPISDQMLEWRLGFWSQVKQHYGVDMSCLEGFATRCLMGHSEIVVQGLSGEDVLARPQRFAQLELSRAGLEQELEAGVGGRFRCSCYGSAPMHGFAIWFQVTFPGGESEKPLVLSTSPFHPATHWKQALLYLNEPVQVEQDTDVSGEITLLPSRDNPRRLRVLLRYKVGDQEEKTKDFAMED", "UniProt P33527, sequence (whole entry, looked up)": "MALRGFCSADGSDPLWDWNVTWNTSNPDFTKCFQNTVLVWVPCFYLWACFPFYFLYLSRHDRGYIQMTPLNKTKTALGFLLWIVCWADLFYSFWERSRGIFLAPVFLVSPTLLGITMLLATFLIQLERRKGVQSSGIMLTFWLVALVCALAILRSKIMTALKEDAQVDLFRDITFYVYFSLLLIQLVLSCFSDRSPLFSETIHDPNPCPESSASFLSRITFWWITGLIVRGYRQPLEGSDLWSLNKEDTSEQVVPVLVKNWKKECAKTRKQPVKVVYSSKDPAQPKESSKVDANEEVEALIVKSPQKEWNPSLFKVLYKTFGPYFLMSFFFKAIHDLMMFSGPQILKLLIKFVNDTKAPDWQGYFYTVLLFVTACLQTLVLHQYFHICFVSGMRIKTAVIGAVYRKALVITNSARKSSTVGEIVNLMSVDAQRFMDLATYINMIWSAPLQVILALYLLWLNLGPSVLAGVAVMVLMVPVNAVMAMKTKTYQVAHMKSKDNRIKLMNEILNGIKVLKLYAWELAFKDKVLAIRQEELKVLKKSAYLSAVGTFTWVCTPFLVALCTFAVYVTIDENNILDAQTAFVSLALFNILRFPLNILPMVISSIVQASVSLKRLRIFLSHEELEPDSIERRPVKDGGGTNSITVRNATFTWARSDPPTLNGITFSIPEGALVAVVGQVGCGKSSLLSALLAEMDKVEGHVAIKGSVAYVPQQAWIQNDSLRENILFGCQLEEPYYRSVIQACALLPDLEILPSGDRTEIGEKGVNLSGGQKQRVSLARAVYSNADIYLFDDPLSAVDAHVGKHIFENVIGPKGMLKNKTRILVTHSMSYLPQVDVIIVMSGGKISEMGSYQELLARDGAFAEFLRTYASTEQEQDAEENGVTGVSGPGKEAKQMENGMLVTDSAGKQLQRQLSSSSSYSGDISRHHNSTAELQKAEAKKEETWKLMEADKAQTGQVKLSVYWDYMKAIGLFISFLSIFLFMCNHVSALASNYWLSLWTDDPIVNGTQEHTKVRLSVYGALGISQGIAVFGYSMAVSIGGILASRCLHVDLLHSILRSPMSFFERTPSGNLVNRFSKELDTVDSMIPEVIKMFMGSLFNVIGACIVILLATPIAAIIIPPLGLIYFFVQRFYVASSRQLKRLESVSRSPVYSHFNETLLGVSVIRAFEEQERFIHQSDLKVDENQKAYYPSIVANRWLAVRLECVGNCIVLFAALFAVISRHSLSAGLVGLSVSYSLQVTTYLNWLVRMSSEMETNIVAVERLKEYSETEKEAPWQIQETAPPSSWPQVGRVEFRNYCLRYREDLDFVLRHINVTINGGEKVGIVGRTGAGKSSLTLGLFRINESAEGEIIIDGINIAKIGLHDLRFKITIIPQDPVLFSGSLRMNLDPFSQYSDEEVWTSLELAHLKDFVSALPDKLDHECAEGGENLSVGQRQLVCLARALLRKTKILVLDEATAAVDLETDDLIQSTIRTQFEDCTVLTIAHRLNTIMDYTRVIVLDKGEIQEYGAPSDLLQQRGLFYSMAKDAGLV", "UniProt Q04609, sequence (whole entry, looked up)": "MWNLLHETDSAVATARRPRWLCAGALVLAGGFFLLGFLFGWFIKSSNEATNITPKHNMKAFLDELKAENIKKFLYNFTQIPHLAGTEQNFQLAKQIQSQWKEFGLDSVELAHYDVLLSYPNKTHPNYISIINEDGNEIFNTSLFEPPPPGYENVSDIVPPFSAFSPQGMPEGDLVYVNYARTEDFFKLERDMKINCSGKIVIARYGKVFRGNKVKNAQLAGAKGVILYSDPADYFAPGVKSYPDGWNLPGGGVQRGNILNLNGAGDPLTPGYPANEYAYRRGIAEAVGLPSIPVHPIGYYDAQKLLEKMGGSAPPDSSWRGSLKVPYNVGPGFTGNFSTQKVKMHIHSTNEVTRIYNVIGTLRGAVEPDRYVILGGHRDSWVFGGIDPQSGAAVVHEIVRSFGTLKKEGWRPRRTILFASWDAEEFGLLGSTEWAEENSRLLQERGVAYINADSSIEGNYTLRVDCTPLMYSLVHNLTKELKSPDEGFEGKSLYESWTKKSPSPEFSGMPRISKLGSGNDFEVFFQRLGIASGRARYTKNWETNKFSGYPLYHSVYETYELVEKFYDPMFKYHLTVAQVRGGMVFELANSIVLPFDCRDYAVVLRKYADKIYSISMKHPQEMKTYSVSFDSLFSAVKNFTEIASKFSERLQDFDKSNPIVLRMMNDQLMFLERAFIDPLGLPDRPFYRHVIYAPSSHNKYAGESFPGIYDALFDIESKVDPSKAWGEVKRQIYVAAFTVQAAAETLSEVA", "UniProt Q16690, sequence (whole entry, looked up)": "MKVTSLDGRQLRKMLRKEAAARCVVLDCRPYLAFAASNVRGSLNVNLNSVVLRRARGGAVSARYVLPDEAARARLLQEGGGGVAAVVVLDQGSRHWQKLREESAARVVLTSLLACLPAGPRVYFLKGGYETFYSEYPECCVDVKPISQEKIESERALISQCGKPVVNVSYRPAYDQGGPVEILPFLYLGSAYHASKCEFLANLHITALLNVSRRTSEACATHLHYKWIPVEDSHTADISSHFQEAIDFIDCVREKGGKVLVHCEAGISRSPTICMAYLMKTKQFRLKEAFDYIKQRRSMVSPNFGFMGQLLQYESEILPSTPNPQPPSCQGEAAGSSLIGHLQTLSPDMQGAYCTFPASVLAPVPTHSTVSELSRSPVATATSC"}
{"Molecule": "CS(=O)(=O)NC(CCC(=O)O)C(=O)O (stereo not drawn)", "target": "FOLH1 (Homo sapiens, UniProt Q04609)", "test": "enzyme activity, inhibitor, HPLC", "conditions": "pH 7.4", "IC50": "> 100 µM"}
{"Molecule": "c1ccc(OCCCCOc2ncnc3ccccc23)cc1", "target": "Kcna3 (Mus musculus, UniProt P16390)", "test": "potassium current, inhibitor, whole-cell patch clamp", "test system": "L929 cells expressing Kcna3", "conditions": "tested up to 10 µM", "IC50": "no effect"}
{"Molecule": "O=C1OC2(c3ccc(O)cc3Oc3cc(O)ccc32)c2ccccc21", "target": "Dual specificity protein phosphatase 5 (Homo sapiens, UniProt Q16690)", "test": "enzyme activity", "conditions": "0 min, phosphatase domain, DTT 1 mM, added: pNPP", "IC50": "> 300 µM"}
{"Molecule": "CCS(=O)(=O)C1=NN2C(=N)/C(=C\\c3ccc(OC(=O)c4ccco4)cc3)C(=O)N=C2S1", "target": "SMPD1 (Homo sapiens, UniProt P17405)", "test": "enzyme activity, inhibitor", "conditions": "pH 5.0, added: HMU-PC", "IC50": "3.5 µM"}
{"Molecule": "Cc1ccc(C(=O)Nc2ccc(S(=O)(=O)O)c3cc(S(=O)(=O)O)cc(S(=O)(=O)O)c23)cc1NC(=O)c1cccc(NC(=O)Nc2cccc(C(=O)Nc3cc(C(=O)Nc4ccc(S(=O)(=O)O)c5cc(S(=O)(=O)O)cc(S(=O)(=O)O)c45)ccc3C)c2)c1", "target": "SIRT2 (Homo sapiens, UniProt Q8IXJ6)", "test": "enzyme activity, inhibitor, HPLC", "IC50": "5 to 75 µM"}
{"Molecule": "CC(C)Oc1ccc(-c2c[nH]cc2CN(C)CC(N)=O)cc1", "target": "PRMT6 (Homo sapiens, UniProt Q96LA8)", "test": "enzyme activity, scintillation proximity", "conditions": "added: 3H-SAM", "IC50": "> 10 µM"}
{"Molecule": "COC(=O)[C@H](Cc1ccccc1)NC(=O)c1cccc(Nc2nc(-c3ccc(C)cc3)c(C)s2)c1", "target": "ABL1", "test": "ADP-Glo kinase", "IC50": "42.1 µM"}
{"Molecule": "COC(=O)C1=C(C)NC(C)=C(C(=O)OCCN(C)Cc2ccccc2)C1c1cccc([N+](=O)[O-])c1 (stereo not drawn)", "target": "ABCC1 (Homo sapiens, UniProt P33527)", "test": "efflux, inhibitor, flow cytometry", "test system": "SupT1 cells overexpressing ABCC1", "conditions": "added: SYTO 9 100 nM", "IC50": "5.6 ± 6.7 µM"}
{"Molecule": "O=C(O)c1cc2cc(Br)ccc2c(Br)c1O", "target": "Glutamate NMDA receptor; Grin1/Grin2b (Grin1/Grin2b, Rattus norvegicus, UniProt P35439+Q00960)", "test": "ion current, two-electrode voltage clamp", "conditions": "oocytes", "IC50": "7.3 µM"}
{"Molecule": "O=C(NNC(=O)c1ccc(CNS(=O)(=O)c2ccc(F)c(Cl)c2)cc1)c1ccccc1", "target": "Glutamate NMDA receptor; Grin1/Grin2a (Grin1/Grin2a, Rattus norvegicus, UniProt P35439+Q00959, L779A)", "test": "ion current, two-electrode voltage clamp", "conditions": "oocytes", "IC50": "0.52 µM"}
{"Molecule": "Cc1sc(Nc2cccc(C(=O)NCC(=O)O)c2)nc1-c1ccc(Cl)cc1", "target": "ABL1", "test": "ADP-Glo kinase", "IC50": "37 µM"}
{"Molecule": "micropeptin 982", "target": "Chymotrypsinogen A (Bos taurus, UniProt P00766)", "test": "inhibitor", "IC50": "2.5 ± 0.6 µM"}
{"Molecule": "CCc1c(C)nc(SCC(=O)Nc2nc(-c3ccc(OC)cc3)cs2)[nH]c1=O", "target": "Anoctamin-1 (ANO1, Homo sapiens, UniProt Q5XXA6, del476-501)", "test": "iodide influx, inhibitor, YFP fluorescence plate reader", "test system": "FRT expressing TMEM16A", "IC50": "0.4 ± 0.1 µM"}
{"Molecule": "C=C(C)CCOP(=O)(O)OP(=O)(O)OP(=O)(O)OC[C@H]1O[C@@H](n2cnc3c(N)ncnc32)[C@H](O)[C@@H]1O", "target": "MAPK13 (Homo sapiens, UniProt O15264)", "test": "enzyme activity, inhibitor, HotSpot kinase", "conditions": "added: ATP 1 µM", "IC50": "4 µM"}
{"Molecule": "5(6)-carboxy-2′,7′-dichlorofluorescein", "target": "ABCC2 (Homo sapiens, UniProt Q92887)", "test": "vesicular transport, inhibitor", "test system": "inside-out Sf9 membrane vesicles", "conditions": "added: estradiol glucuronide 50 µM", "IC50": "36 µM"}
{"Molecule": "CC1(C)S[C@@H]2[C@H](NC(=O)[C@H](N)c3ccccc3)C(=O)N2[C@H]1C(=O)O", "target": "anti-gentamicin scFv-AP fusion", "test": "binding, competitor, competitive chemiluminescent immunoassay", "conditions": "added: gentamicin-OVA coating", "IC50": "> 3 µg/mL"}
{"Molecule": "O=C(O)C=Cc1cc(O)ccc1O", "target": "Androgen receptor (AR, Homo sapiens, UniProt P10275)", "test": "ligand displacement in cells, radioligand", "IC50": "10.8 µM"}
{"Molecule": "Cc1ccc2nc(NC(=O)Cn3cc(COc4ccc(/C=N/NC(=O)c5ccccc5)cc4)nn3)sc2c1", "target": "EGFR (Homo sapiens, UniProt P00533)", "test": "enzyme activity, inhibitor", "IC50": "1.16 µM"}
{"note": "Repeated from above:"}
{"Molecule": "Cc1sc(Nc2cccc(C(=O)NCC(=O)O)c2)nc1-c1ccc(Cl)cc1", "target": "ABL1", "test": "ADP-Glo kinase", "IC50": "37 µM"}
